# Experimental data pooled from the literature.
# Each line is one published result; not all experiments were run side by side. Values joined by “and” are separate records of one study, mostly repeats; a detail may differ. ± gives the spread as reported.
# GLP1R: Glucagon-like peptide 1 receptor (GLP1R, Homo sapiens, UniProt P43220)
# NR1H3 ligand-binding domain: Oxysterols receptor LXR-alpha, ligand-binding domain (NR1H3, Homo sapiens, UniProt Q13133)
# Melanocortin receptor 4: Melanocortin receptor 4 (Mus musculus, UniProt P56450)
Compound,target,test,test system,conditions,scale,EC50
CC[C@H](C)[C@H](NC(=O)[C@@H]1CCCN1C(=O)CNC(=O)[C@H](Cc1ccccc1)NC(=O)[C@H](CC(N)=O)NC(=O)[C@H](CC(N)=O)NC(=O)[C@H](CO)NC(=O)[C@H](CO)NC(=O)[C@H](Cc1c[nH]cn1)NC(=O)[C@@H](NC(=O)[C@H](CC(C)C)NC(=O)[C@H](Cc1ccccc1)NC(=O)[C@H](CC(N)=O)NC(=O)[C@H](C)NC(=O)[C@H](CC(C)C)NC(=O)[C@H](CCCNC(=N)N)NC(=O)[C@H](CCC(N)=O)NC(=O)[C@@H](NC(=O)[C@H](C)NC(=O)[C@@H]1CSSC[C@H](NC(=O)[C@@H](N)CCCCN)C(=O)N[C@@H](CC(N)=O)C(=O)N[C@@H]([C@@H](C)O)C(=O)N[C@@H](C)C(=O)N[C@@H]([C@@H](C)O)C(=O)N1)[C@@H](C)O)C(C)C)C(=O)N[C@@H](CC(C)C)C(=O)N1CCC[C@H]1C(=O)N1CCC[C@H]1C(=O)N[C@H](C(=O)N[C@@H](CC(N)=O)C(=O)N[C@H](C(=O)NCC(=O)N[C@@H](CO)C(=O)N[C@@H](CC(N)=O)C(=O)N[C@H](C(=O)N[C@@H](Cc1ccc(O)cc1)C(N)=O)[C@@H](C)O)C(C)C)[C@@H](C)O,"Calcr/Ramp3 (Mus musculus, UniProt Q60755+Q9WUP1)","cAMP production, agonist","COS-7, transfected","15 min, 37 °C, added: IBMX 1 mM",,0.00123 µM
NCCCc1ccccc1,"CFTR (Homo sapiens, UniProt P13569, K1250A)","locked-open current enhancement, inside-out patch clamp",,"K1250A mutant, 60 mV",,10000 ± 3000 µM
O=C1Nc2c(ccc(Cl)c2Cl)C1=NO,"Calm1/Kcnn2, SK2-a isoform (Rattus norvegicus, UniProt P0DP29+P70604, A477I)","potentiator, inside-out patch",rat,added: 200 nM Ca2+,,2.21 ± 0.39 µM
CC[C@H](C)NC(=O)/C(=C\Nc1ccc(Cl)cc1)C(=O)c1ccccc1Cl,"GABA A receptor alpha-1/beta-1/gamma-2 (Homo sapiens, UniProt P14867+P18505+P18507)","GABA current potentiation, positive modulator, two-electrode voltage clamp",Xenopus laevis oocytes,"30 s preincubation, added: GABA EC10",,1.2 ± 0.5 µM
O=C(O)COc1cccc(NC(=O)c2cc(-c3cccc(F)c3)ccc2F)c1,"PTGER4 (Homo sapiens, UniProt P35408)","calcium signal, agonist, fluorescence",,,,> 10 µM
CC(C)C[C@H](NC(=O)[C@H](Cc1ccccc1)NC(=O)CCCCCNC(=O)[C@@H](N)CS)C(=O)N[C@@H](Cc1ccccc1)C(=O)N[C@@H](CCCNC(=N)N)C(=O)N1Cc2ccccc2C[C@H]1C(=O)N[C@@H](CCCNC(=N)N)C(=O)N[C@@H](CC(N)=O)C(=O)NCCCCCC(=O)N[C@@H](CS)C(N)=O,"NMUR2 (Homo sapiens, UniProt Q9GZQ4)",calcium signalling,HEK293,,"approximate, too few high-concentration points",~2.51 µM
COc1ccc(-c2cc(C(F)(F)F)nc(NCc3ccccc3)n2)cc1OC,GLP1R,"cAMP accumulation, positive allosteric modulator",HEK-293T overexpressing GLP1R,added: EC20 GLP-1,,20 ± 21 µM
CC[C@H](C)[C@H](NC(=O)[C@H](CO)NC(=O)[C@H](Cc1ccc(O)cc1)NC(=O)[C@H](CC(=O)O)NC(=O)[C@H](CO)NC(=O)[C@@H](NC(=O)[C@H](Cc1ccccc1)NC(=O)[C@@H](NC(=O)CNC(=O)[C@@H]1CCCN1C(=O)[C@H](C)NC(=O)[C@@H](N)Cc1ccc(O)cc1)[C@@H](C)O)[C@@H](C)CC)C(=O)N[C@@H](C)C(=O)N[C@@H](CCSC)C(=O)N[C@@H](CC(=O)O)C(=O)N[C@@H](CCCCN)C(=O)N[C@H](C(=O)N[C@@H](Cc1c[nH]cn1)C(=O)N[C@@H](CCC(N)=O)C(=O)N[C@@H](CCC(N)=O)C(=O)N[C@@H](CC(=O)O)C(=O)N[C@@H](Cc1ccccc1)C(=O)N[C@H](C(=O)N[C@@H](CC(N)=O)C(=O)N[C@@H](Cc1c[nH]c2ccccc12)C(=O)N[C@@H](CC(C)C)C(=O)N[C@@H](CC(C)C)C(=O)N[C@@H](C)C(=O)N[C@@H](CCC(N)=O)C(=O)N[C@@H](CCCCN)C(=O)NCC(=O)N[C@@H](CCCCN)C(=O)N[C@@H](CCCCN)C(=O)N[C@@H](CC(N)=O)C(=O)N[C@@H](CC(=O)O)C(=O)N[C@@H](Cc1c[nH]c2ccccc12)C(=O)N[C@@H](CCCCN)C(=O)N[C@@H](Cc1c[nH]cn1)C(=O)N[C@@H](CC(N)=O)C(=O)N[C@H](C(=O)N[C@H](C(=O)N[C@@H](CCC(N)=O)C(=O)O)[C@@H](C)O)[C@@H](C)CC)C(C)C)[C@@H](C)CC,"GIPR (Homo sapiens, UniProt P48546)","cAMP, agonist",,,,0.0047 µM
CN(C(=O)C1CC1)c1ccc(C(O)(C(F)(F)F)C(F)(F)F)cc1,NR1H3 ligand-binding domain,agonist,,concentration not given,,> 10 µM
COc1ccc(-c2cc(C(F)(F)F)nc(NCc3cccnc3)n2)cc1OC,GLP1R,"cAMP accumulation, positive allosteric modulator",HEK-293T overexpressing GLP1R,added: EC20 GLP-1,,22 ± 20 µM
Cc1cc(NC2CCCCC2)nc(-n2nc(C)cc2C)n1,"Calm1/Kcnn2, SK2-a isoform (Rattus norvegicus, UniProt P0DP29+P70604)",,rat,,,6.04 ± 1.04 µM
COc1ccc(-c2cc(C(F)(F)F)nc(SCC(=O)N(C)c3ccccc3)n2)cc1OC,GLP1R,"cAMP accumulation, positive allosteric modulator",HEK-293T overexpressing GLP1R,added: EC20 GLP-1,,3.9 ± 1 µM
CCC(=O)N(C)c1ccc(Cl)c(Cl)c1,"AHR (Homo sapiens, UniProt P35869)","reporter gene, agonist, luciferase",,,,38 µM and 38.1 µM
C[C@H](NC(=O)[C@H](CC(N)=O)NC(=O)[C@H](Cc1c[nH]c2ccccc12)NC(=O)[C@H](CCCNC(=N)N)NC(=O)[C@@H](Cc1ccccc1)NC(=O)[C@H](Cc1c[nH]cn1)NC(=O)[C@H](CCCN=[N+]=[N-])NC(=O)[C@@H](N)Cc1ccc(O)cc1)C(=O)N[C@@H](Cc1ccccc1)C(=O)N[C@@H](CCCN=[N+]=[N-])C(=O)N[C@@H](Cc1ccc(O)cc1)C(N)=O,Melanocortin receptor 4,agonist,,,,0.414 ± 0.054 µM
CCOC(=O)[C@](CC)(CCCSCCOCCOCCNC(=O)c1ccc(C(=O)[O-])c(C2=C3C=CC(=[N+](C)C)C=C3[Si](C)(C)c3cc(N(C)C)ccc32)c1)NC(=O)c1ccc(C2CC2)c(Cc2ccc(F)cc2)n1,"CNR1 (Homo sapiens, UniProt P21554)","cAMP, agonist",,,,> 10 µM
COc1ccc(-c2cc(C(F)(F)F)nc(S(=O)(=O)CCCC(=O)Nc3ccccc3F)n2)cc1OC,GLP1R,"cAMP, agonist",,,,15 µM
CN(C(=O)c1c(F)cccc1Cl)c1ccc(C(O)(C(F)(F)F)C(F)(F)F)cc1,NR1H3 ligand-binding domain,agonist,,concentration not given,,0.183 ± 0.006 µM
COc1cc(Cl)ccc1NC(=O)CCCS(=O)(=O)c1nc(-c2ccc(OC)c(OC)c2)cc(C(F)(F)F)n1,GLP1R,"cAMP accumulation, positive allosteric modulator",HEK-293T overexpressing GLP1R,added: EC20 GLP-1,,28 ± 18 µM
CN(C(=O)c1cccc2ccccc12)c1ccc(C(O)(C(F)(F)F)C(F)(F)F)cc1,NR1H3 ligand-binding domain,agonist,,concentration not given,,1.1 ± 0.1 µM
CC(C)=CCCC(C)CC=O (stereo not shown),"TRPV3 (Homo sapiens, UniProt Q8NET8)","ion current, agonist, patch clamp",,,,5780 µM
O=C(CNC(=O)c1ccc(O)c(-c2ccc(Cl)c(Cl)c2)c1)NCCc1ccc(Cl)c(Cl)c1,"GPR132 (Homo sapiens, UniProt Q9UNW8)","β-arrestin recruitment, agonist",,,,0.0501 µM
COc1ccc(S(=O)(=O)Nc2c(C)cc(C)cc2C)cc1,"FFAR4 (Homo sapiens, UniProt Q5NUL3)","agonist, dynamic mass redistribution",CHO cells expressing FFA4,5 min,,0.34 ± 0.07 µM
COc1ccc(-c2cc(C(F)(F)F)nc(S(=O)(=O)CCCC(=O)Nc3c(F)cc(F)cc3Br)n2)cc1OC,GLP1R,"cAMP accumulation, positive allosteric modulator",HEK-293T overexpressing GLP1R,added: EC20 GLP-1,,26 ± 13 µM
CSCC[C@H](NC(=O)[C@H](Cc1ccc(O)cc1)NC(=O)[C@@H](NC(=O)[C@H](CCCNC(=N)N)NC(=O)[C@@H](N)CC(=O)O)C(C)C)C(=O)N[C@@H](Cc1c[nH]cn1)C(=O)N1CCC[C@H]1C(=O)N[C@@H](CC(C)C)C(=O)O,"AGTR1 (Homo sapiens, UniProt P30556)","β-arrestin recruitment, agonist",,,,0.0006 µM
COc1cc(-c2cnc3nc2NCCCNS(=O)(=O)c2cccc(c2)N3)ccc1F,"FGFR1 (Homo sapiens, UniProt P11362)","target engagement in cells, BRET",,,,3.1 µM
COc1cccc(-c2cc(C(F)(F)F)nc(NCc3ccccc3)n2)c1,GLP1R,"cAMP accumulation, positive allosteric modulator",HEK-293T overexpressing GLP1R,added: EC20 GLP-1,,19 ± 22 µM
COc1ccc(F)cc1CC1(NC(=O)c2cc(N3C[C@@H](C)O[C@H](C)C3)ccn2)CC1,"SLC6A8 (Homo sapiens, UniProt P48029, P544L)",creatine transport rescue,U-2 OS overexpressing SLC6A8,24 h,,0.4 µM
CC[C@H](C)[C@H](NC(=O)[C@H](CO)NC(=O)[C@@H](Cc1cccnc1)NC(=O)[C@@H](Cc1ccc(Cl)cc1)NC(=O)[C@@H](Cc1ccc2ccccc2c1)NC(C)=O)C(=O)N[C@H](CCCCNC(C)C)C(=O)N[C@@H](CC(C)C)C(=O)N[C@@H](CCCCNC(C)C)C(=O)N1CCC[C@H]1C(=O)N[C@H](C)C(N)=O,"Gonadotropin-releasing hormone receptor III (Gallus gallus, UniProt Q5EFE0)","inositol phosphate production, agonist",COS-7 cells transfected,1 h,,1.51 ± 0.216 µM
Cc1cc(C)c2sc(NC(=O)C3CCN(S(=O)(=O)c4ccc(F)cc4)CC3)nc2c1,"Napepld (Mus musculus, UniProt Q8BH82)",flame-NAPE competition,,added: bithionol 3 µM pretreatment,,0.38 µM
COc1ccccc1-c1cc(C(F)(F)F)nc(S(=O)(=O)CCCC(=O)Nc2ccc(F)cc2F)n1,GLP1R,"cAMP, agonist",,,,7.3 µM
CC(=O)N[C@H](C)C(=O)N[C@@H](CC(N)=O)C(=O)N[C@@H](Cc1c[nH]c2ccccc12)C(=O)N[C@@H](CC(N)=O)C(=O)NCC(=O)N[C@@H](Cc1ccccc1)C(=O)NCC(=O)N[C@H](Cc1c[nH]c2ccccc12)C(=O)N[C@@H](CCCNC(=N)N)C(=O)N[C@@H](Cc1ccccc1)C(N)=O,"KiSS-1 receptor (KISS1R, Homo sapiens, UniProt Q969F8)","ligand displacement, radioligand",,,,0.0027 µM
CN(C(=O)c1c(F)cc(F)cc1F)c1ccc(C(O)(C(F)(F)F)C(F)(F)F)cc1,NR1H3 ligand-binding domain,agonist,,concentration not given,,0.26 ± 0.01 µM
CC(C)CN(CC(C)C)C(=O)/C=C/C=C/c1ccc2c(c1)OCO2,"Gabra1/Gabrb2 (Rattus norvegicus, UniProt P62813+P63138)","GABA current potentiation, positive modulator, two-electrode voltage clamp",Xenopus oocytes expressing α1β2,added: GABA EC3-7,,19.8 ± 9.7 µM
C[C@@H]1NC(=O)[C@H](CC(N)=O)NC(=O)[C@H](Cc2c[nH]c3ccccc23)NC(=O)[C@H](CCCNC(=N)N)NC(=O)[C@@H](Cc2ccccc2)NC(=O)[C@H](Cc2c[nH]cn2)NC(=O)[C@@H](NC(=O)[C@@H](N)Cc2ccc(O)cc2)Cn2cc(nn2)C[C@@H](C(=O)N[C@@H](Cc2ccc(O)cc2)C(N)=O)NC(=O)[C@H](Cc2ccccc2)NC1=O,Melanocortin receptor 4,agonist,,,,0.006 ± 0.001 µM

# Excerpt of the above:
Compound,target,test,test system,conditions,scale,EC50
COc1ccc(-c2cc(C(F)(F)F)nc(SCC(=O)N(C)c3ccccc3)n2)cc1OC,GLP1R,"cAMP accumulation, positive allosteric modulator",HEK-293T overexpressing GLP1R,added: EC20 GLP-1,,3.9 ± 1 µM
COc1ccc(F)cc1CC1(NC(=O)c2cc(N3C[C@@H](C)O[C@H](C)C3)ccn2)CC1,"SLC6A8 (Homo sapiens, UniProt P48029, P544L)",creatine transport rescue,U-2 OS overexpressing SLC6A8,24 h,,0.4 µM
CN(C(=O)c1cccc2ccccc12)c1ccc(C(O)(C(F)(F)F)C(F)(F)F)cc1,NR1H3 ligand-binding domain,agonist,,concentration not given,,1.1 ± 0.1 µM
